Measured values from different studies.
Each line is one published result; not all experiments were run side by side.
ache: Acetylcholinesterase (ache, Electrophorus electricus, UniProt O42275)
UniProt O42275, sequence (whole entry, looked up): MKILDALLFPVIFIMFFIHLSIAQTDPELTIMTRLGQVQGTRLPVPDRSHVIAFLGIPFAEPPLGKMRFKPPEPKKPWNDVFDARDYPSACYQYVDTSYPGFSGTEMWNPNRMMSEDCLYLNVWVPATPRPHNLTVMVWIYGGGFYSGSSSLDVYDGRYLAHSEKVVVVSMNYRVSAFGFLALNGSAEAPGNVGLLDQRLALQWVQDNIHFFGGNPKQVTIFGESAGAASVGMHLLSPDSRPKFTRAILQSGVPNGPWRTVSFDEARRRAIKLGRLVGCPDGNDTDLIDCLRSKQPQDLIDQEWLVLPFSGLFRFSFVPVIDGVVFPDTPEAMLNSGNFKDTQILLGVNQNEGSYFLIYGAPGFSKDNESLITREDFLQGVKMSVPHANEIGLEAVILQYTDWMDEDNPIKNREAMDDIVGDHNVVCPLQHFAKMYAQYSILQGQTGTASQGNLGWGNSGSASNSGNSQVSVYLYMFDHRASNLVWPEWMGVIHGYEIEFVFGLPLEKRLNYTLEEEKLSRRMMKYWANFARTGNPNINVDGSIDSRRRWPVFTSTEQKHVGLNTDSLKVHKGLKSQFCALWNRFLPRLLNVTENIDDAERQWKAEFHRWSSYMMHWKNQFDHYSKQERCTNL
UniProt Q99720, sequence (whole entry, looked up): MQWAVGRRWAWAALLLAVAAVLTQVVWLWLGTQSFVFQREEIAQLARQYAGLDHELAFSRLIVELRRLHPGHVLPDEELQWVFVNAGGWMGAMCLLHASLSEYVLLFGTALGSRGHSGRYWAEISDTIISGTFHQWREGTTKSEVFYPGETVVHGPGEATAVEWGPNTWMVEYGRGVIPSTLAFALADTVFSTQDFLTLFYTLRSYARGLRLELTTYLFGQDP
UniProt P34969, sequence (whole entry, looked up): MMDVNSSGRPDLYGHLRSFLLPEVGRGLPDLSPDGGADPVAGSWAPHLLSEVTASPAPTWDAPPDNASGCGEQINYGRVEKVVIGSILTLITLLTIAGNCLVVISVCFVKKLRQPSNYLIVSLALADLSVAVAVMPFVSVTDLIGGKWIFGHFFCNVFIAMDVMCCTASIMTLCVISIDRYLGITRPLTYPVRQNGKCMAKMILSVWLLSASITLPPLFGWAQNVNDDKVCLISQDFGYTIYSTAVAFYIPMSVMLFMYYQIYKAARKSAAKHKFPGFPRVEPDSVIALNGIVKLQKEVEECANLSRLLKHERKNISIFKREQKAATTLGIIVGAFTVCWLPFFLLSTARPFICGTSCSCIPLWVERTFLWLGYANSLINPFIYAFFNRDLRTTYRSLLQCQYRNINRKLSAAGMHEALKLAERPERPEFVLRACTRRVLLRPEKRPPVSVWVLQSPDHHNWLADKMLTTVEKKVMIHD
UniProt P49137, sequence (whole entry, looked up): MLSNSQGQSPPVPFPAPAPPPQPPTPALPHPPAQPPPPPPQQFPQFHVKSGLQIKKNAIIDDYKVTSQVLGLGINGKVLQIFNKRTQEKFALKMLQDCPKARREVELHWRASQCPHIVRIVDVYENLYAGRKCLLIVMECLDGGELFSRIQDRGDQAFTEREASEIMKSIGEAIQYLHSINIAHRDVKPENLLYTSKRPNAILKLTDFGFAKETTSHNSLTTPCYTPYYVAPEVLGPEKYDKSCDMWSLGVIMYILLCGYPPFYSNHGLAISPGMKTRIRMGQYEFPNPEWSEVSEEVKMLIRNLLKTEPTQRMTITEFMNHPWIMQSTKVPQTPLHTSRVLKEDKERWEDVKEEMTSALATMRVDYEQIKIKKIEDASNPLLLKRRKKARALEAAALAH
UniProt P34975, sequence (whole entry, looked up): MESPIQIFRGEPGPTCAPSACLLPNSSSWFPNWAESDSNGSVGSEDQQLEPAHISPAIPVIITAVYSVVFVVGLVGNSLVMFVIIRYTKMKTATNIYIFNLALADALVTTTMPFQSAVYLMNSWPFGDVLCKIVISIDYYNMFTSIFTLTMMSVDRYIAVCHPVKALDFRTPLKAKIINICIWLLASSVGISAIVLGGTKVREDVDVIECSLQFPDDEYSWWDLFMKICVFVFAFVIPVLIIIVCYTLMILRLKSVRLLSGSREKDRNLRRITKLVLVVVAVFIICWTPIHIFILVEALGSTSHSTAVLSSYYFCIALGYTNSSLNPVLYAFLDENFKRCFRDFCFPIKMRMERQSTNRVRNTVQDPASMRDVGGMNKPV
UniProt P54756, sequence (whole entry, looked up): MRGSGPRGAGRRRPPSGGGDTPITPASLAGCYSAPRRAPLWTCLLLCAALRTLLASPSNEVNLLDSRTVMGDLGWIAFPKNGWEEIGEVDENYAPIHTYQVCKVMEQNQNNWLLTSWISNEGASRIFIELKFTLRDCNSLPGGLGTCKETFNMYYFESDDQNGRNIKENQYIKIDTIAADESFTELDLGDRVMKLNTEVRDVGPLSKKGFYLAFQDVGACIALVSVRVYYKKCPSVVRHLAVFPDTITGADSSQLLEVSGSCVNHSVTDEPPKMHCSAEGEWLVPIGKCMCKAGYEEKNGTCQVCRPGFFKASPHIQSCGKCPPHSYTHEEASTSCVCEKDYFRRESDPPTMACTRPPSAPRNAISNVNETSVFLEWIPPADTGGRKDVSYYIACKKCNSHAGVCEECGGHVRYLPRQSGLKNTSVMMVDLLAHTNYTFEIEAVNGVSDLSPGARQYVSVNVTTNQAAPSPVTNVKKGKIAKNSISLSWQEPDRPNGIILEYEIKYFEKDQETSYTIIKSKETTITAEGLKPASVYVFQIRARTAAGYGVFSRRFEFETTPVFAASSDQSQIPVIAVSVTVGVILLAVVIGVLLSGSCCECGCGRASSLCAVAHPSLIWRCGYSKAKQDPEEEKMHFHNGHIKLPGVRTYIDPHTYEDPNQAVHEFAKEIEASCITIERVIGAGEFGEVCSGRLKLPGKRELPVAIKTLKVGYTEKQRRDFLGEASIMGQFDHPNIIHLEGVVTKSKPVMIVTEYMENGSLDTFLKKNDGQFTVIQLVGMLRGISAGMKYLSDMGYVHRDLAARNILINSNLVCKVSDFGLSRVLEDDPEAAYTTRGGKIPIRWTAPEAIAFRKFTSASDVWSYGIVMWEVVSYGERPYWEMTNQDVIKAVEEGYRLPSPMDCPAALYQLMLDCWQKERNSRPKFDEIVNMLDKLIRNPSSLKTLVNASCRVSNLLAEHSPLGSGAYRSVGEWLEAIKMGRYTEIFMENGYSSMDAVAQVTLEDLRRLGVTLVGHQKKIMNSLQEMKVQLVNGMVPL
UniProt Q01959, sequence (whole entry, looked up): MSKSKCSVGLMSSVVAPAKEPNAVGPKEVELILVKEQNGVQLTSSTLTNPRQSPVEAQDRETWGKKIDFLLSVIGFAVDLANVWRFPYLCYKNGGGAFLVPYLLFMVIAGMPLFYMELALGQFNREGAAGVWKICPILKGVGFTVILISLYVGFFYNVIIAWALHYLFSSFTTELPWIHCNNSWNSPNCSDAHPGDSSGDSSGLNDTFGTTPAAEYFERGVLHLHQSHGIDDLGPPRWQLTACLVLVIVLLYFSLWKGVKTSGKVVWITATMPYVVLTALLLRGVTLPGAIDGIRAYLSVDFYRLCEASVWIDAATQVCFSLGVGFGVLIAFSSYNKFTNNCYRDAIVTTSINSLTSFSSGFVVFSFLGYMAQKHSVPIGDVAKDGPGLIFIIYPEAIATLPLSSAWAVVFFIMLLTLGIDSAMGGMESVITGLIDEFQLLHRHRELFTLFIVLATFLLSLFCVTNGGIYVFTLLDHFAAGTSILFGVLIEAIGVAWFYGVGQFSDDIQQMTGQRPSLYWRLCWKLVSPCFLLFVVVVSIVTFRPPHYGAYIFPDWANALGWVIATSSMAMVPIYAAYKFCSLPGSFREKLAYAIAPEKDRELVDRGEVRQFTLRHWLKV
UniProt P51956, sequence (whole entry, looked up): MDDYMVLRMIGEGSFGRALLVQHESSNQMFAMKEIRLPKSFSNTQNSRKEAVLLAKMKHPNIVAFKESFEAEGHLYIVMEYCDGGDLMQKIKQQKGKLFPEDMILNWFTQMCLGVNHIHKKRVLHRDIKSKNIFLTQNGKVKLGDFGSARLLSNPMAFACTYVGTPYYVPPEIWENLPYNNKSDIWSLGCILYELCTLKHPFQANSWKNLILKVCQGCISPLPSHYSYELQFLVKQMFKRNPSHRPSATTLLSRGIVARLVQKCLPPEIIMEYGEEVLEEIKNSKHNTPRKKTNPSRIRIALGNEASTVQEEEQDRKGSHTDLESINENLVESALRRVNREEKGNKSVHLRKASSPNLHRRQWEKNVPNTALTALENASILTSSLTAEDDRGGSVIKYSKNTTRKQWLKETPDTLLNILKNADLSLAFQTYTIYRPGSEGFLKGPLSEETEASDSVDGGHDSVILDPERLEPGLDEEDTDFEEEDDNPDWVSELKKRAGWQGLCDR
UniProt P14902, sequence (whole entry, looked up): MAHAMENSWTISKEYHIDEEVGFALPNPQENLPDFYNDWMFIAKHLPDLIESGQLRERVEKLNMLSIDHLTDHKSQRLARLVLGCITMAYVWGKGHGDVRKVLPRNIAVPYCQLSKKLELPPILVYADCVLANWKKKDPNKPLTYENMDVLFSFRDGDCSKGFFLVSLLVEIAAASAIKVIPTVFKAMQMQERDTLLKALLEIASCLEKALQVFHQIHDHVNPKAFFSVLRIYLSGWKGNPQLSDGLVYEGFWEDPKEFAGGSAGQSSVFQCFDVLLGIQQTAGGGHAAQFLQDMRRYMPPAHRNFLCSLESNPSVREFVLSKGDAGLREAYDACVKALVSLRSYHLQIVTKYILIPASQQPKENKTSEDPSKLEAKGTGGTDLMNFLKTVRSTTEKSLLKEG

O=C(CN1CN(c2ccccc2)C2(CCN(C(=O)c3cnc4[nH]ncc4c3)CC2)C1=O)NCC(F)(F)F
inhibition (EPHA5 (Homo sapiens, UniProt P54756); inhibitor; concentration not given): < 50%

CS(C)(=O)=Nc1ccc(-c2ccc(-c3nc4cc(O[C@@H]5CO[C@H]6[C@@H]5OC[C@H]6O)[nH]c4cc3F)cc2)cc1
inhibition (Oprk1 (Rattus norvegicus, UniProt P34975); calcium signal, antagonist; 10 µM): 19%

CN[C@@H]1[C@H](O)[C@H](NC)[C@H]2O[C@]3(O)[C@H](O[C@@H]2[C@H]1O)O[C@H](C)C[C@H]3NC(=O)Cc1ccc(Cl)cn1
inhibition (SIGMAR1 (Homo sapiens, UniProt Q99720); ligand displacement, radioligand; 10 µM): -2%

CCc1nnc(-c2c(OC)cc(-c3cnc4cc(-c5cnn(C)c5)ccn34)cc2OC)o1
inhibition (SLC6A3 (Homo sapiens, UniProt Q01959); antagonist radioligand, radioligand binding; 10 µM, SafetyScreen44 dopamine transporter): 7%

NC1CC1
inhibition (ache; enzyme activity, inhibitor, Ellman; 20 µM): 34.4%

O=C(NC1CCN(c2ncnc3[nH]cnc23)CC1)c1cccc(NS(=O)(=O)c2ccc(C(F)(F)F)cc2)c1
inhibition (Replicase polyprotein 1ab, nsp14 (Human coronavirus OC43, UniProt P0C6X6); enzyme activity; 0.7812 µM): 50%

COc1cc2c(cc1OC)CNCC2
inhibition (ache; enzyme activity, inhibitor, Ellman; 20 µM): 43.7%

N[C@H](C(=O)N1CCCC1)C1CCN(c2nccc3c(-c4ncc(Cl)cc4Cl)cccc23)CC1
inhibition (MAPKAPK2 (Homo sapiens, UniProt P49137); kinase activity, inhibitor; 10 µM, with: ATP 1 mM): 8.3%

CC(=O)NC[C@@H]1[C@@H](O)C[C@H]2[C@H](O)C[C@@H](CO)N12
inhibition (human placental β-N-acetylglucosaminidase; 0.0107 µM, run 2, with: p-nitrophenyl GlcNAc): 14.6%

CC(C)[C@H]1NC(=O)C[C@H]2/C=C/CCSSC[C@@H](NC1=O)C(=O)N[C@H](Cc1cccc3ccccc13)C(=O)NCC(=O)O2
inhibition (SRPK2 (Homo sapiens, UniProt P78362); enzyme activity, inhibitor; 10 µM): 0.8%

CN(C)[C@H]1C[C@@]23CC[C@@]4(O2)C(=CC[C@]2(C)[C@@H](c5ccc6ccncc6c5)CC[C@H]24)C=C3[C@@H](O)[C@@H]1O
inhibition (NEK3 (Homo sapiens, UniProt P51956); ATP probe labelling, inhibitor, KiNativ profiling; 0.1 µM): 3.8%

O=C(O)CCn1c(=O)oc2cc(Cl)c(Cl)cc21
inhibition (IDO1 (Homo sapiens, UniProt P14902); 100 µM): 6.7%

COc1ccccc1N1CCN(CCCCN2CCCc3ccccc3C2=O)CC1
inhibition (HTR7 (Homo sapiens, UniProt P34969); radioligand binding; concentration not given, with: [3H]LSD): 99.1%

For quick reference, copied from above:
N[C@H](C(=O)N1CCCC1)C1CCN(c2nccc3c(-c4ncc(Cl)cc4Cl)cccc23)CC1
inhibition (MAPKAPK2 (Homo sapiens, UniProt P49137); kinase activity, inhibitor; 10 µM, with: ATP 1 mM): 8.3%
